Published values pooled from the literature.
Lines come from different studies, so protocols differ. Values joined by “and” are separate records of one study, mostly repeats; a detail may differ. Numbers after ± are the reported error.
dcp2 with Dcp1: mRNA decapping complex subunit 2, with Dcp1 (dcp2, Schizosaccharomyces pombe, UniProt O13828)
Sequence of UniProt O13828 (whole entry, looked up): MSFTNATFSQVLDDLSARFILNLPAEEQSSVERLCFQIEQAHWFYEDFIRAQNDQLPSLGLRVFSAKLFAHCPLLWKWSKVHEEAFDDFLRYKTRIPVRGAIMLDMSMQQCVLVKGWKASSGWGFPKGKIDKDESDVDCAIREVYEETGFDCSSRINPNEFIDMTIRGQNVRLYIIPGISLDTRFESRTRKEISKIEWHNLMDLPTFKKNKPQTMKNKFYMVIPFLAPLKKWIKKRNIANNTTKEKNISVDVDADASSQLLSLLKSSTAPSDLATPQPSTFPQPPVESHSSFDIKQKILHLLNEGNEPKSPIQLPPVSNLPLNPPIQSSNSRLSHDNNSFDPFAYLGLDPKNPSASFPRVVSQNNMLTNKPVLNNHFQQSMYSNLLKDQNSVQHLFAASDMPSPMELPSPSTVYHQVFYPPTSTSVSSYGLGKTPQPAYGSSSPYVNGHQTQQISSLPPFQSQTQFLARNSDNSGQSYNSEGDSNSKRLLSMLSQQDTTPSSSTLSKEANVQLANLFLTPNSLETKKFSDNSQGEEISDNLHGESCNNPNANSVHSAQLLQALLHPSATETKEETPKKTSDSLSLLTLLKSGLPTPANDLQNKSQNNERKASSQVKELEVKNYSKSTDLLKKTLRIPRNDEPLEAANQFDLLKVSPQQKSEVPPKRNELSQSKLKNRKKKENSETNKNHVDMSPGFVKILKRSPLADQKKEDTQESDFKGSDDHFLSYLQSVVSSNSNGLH
ache: Acetylcholinesterase (ache, Electrophorus electricus, UniProt O42275)
Sequence of UniProt O42275 (whole entry, looked up): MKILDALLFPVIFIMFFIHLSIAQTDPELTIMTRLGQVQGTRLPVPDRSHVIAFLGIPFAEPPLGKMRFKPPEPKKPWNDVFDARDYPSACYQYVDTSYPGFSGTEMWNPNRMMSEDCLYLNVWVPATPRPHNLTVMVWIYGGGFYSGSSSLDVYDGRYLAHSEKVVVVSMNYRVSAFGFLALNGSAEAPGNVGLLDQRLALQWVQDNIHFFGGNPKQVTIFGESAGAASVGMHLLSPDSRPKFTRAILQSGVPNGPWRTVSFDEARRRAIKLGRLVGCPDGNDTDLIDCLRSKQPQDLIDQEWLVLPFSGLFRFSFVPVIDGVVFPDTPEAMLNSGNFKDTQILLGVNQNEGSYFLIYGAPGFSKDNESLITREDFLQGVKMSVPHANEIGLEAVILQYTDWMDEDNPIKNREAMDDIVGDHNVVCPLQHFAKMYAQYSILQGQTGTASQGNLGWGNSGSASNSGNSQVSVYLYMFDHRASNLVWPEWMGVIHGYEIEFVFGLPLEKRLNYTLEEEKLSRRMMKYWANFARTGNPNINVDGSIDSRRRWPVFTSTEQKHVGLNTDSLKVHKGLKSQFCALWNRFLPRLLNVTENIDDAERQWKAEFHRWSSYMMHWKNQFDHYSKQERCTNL
Sequence of UniProt Q9Y2I7 (whole entry, looked up): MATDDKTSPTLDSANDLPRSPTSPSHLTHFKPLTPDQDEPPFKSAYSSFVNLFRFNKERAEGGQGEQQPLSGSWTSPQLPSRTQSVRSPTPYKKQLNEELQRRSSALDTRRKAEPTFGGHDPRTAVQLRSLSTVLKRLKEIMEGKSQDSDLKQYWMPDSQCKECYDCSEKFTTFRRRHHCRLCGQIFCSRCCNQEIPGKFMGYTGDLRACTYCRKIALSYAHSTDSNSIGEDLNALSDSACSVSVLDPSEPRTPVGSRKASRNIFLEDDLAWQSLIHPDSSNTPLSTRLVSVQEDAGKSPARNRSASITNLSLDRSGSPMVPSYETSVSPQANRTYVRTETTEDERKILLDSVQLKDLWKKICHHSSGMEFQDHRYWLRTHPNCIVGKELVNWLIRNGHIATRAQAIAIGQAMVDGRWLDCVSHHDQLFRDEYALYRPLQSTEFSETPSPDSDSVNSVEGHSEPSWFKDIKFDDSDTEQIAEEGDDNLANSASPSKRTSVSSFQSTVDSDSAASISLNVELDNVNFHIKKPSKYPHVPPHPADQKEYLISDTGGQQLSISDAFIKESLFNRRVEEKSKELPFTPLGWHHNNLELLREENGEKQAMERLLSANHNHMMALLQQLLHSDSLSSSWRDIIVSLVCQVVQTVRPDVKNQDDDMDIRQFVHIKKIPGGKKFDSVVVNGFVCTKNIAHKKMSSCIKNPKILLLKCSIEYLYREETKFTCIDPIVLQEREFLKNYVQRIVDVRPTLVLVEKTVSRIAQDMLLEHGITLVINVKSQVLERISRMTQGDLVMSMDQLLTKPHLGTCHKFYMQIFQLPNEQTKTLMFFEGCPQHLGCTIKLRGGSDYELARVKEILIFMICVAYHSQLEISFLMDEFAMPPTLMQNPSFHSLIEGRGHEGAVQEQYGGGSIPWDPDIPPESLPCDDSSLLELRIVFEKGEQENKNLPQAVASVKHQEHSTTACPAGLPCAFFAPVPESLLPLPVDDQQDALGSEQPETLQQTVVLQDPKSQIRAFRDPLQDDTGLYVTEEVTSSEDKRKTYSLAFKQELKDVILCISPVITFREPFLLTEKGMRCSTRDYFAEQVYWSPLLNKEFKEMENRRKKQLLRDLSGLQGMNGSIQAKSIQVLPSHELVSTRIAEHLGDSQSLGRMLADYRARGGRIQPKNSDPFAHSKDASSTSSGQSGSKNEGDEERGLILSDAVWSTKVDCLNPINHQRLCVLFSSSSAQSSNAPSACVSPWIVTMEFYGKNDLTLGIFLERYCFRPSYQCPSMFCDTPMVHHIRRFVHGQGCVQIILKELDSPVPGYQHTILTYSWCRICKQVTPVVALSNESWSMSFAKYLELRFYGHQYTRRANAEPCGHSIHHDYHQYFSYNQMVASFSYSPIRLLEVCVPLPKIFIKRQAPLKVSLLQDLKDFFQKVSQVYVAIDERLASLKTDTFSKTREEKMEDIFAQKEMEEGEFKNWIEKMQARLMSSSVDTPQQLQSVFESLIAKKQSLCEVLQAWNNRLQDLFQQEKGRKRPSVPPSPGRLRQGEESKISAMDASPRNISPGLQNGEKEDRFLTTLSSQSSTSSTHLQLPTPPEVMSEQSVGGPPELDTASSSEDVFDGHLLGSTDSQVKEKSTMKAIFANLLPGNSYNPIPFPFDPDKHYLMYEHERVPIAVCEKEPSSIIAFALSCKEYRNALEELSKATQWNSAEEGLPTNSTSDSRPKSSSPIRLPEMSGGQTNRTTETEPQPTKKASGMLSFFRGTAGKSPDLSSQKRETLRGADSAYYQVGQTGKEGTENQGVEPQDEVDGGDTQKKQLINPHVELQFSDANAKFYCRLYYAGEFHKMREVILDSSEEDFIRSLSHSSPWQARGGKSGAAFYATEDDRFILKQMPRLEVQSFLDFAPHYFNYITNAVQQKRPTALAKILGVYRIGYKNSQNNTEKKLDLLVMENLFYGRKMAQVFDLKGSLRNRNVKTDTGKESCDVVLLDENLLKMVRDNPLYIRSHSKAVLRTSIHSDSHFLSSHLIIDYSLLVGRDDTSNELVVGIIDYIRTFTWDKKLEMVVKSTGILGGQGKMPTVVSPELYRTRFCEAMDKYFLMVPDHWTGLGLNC
Sequence of UniProt P36897 (whole entry, looked up): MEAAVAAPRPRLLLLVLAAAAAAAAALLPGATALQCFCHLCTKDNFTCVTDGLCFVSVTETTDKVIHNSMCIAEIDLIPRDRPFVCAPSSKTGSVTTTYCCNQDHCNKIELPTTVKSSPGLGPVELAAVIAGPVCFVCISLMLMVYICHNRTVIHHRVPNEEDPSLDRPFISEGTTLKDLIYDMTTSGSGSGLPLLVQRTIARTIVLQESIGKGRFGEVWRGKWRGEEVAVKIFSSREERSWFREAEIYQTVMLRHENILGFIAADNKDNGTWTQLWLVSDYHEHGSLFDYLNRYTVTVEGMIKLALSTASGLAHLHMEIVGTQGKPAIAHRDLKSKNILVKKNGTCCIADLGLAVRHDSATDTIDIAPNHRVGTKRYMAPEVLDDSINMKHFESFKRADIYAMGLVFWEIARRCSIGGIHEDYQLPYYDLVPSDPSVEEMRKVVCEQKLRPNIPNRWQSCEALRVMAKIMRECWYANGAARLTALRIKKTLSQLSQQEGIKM
Sequence of UniProt Q8IVH8 (whole entry, looked up): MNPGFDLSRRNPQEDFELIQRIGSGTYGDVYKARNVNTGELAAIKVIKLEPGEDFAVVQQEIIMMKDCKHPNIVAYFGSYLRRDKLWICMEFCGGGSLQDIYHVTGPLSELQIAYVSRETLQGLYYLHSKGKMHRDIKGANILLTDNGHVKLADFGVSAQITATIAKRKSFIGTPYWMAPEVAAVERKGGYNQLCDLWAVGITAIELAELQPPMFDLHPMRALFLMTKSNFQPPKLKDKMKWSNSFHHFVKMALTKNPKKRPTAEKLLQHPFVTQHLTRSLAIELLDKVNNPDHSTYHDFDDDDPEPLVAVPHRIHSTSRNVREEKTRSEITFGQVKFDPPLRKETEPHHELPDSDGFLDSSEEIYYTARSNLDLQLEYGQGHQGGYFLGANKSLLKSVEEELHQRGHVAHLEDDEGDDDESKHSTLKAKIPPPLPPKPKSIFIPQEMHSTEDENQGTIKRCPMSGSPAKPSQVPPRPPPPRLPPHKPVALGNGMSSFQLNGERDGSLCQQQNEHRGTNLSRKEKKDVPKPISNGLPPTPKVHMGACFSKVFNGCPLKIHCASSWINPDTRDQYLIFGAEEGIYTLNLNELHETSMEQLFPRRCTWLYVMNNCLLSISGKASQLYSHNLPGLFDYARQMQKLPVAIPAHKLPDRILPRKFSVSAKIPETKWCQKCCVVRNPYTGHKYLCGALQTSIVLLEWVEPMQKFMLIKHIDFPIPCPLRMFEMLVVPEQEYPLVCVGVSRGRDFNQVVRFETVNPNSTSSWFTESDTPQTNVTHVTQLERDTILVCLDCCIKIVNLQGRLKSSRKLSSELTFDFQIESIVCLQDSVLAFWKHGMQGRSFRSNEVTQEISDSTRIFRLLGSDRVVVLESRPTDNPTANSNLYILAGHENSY

For O=C1NC(=O)c2c1c1cc(F)c[n+]3c1c1c2c2cc(O)ccc2[n]1[Ru-4]312([N]=C=S)[S+]3CC[S+]1CC[S+]2CC3 (stereo not shown), the remaining activity was 112% (MAPKAPK2 (Homo sapiens, UniProt P49137); enzyme activity; 100 nM, human enzyme, together with: 10 µM ATP; baseline: untreated).
With OB(O)c1cnn(-c2cccc(Cl)c2)c1 the inhibition was 73% (Beta-lactamase (ampC, Escherichia coli K-12, UniProt P00811); enzyme activity, CENTA hydrolysis; 1 µM).
For O=C(CP(=O)(Oc1ccccc1)Oc1ccccc1)N/N=C\c1ncccc1F, inhibition read “inactive” (Protein phosphatase methylesterase 1 (Homo sapiens, UniProt Q9Y570); enzyme activity, inhibitor, gel-based ABPP; overexpression lysate; concentration not given).
For BP(=O)(OC[C@H]1O[C@@H](n2c[n+](C)c3c(O)nc(N)nc32)[C@H](O)[C@@H]1O)OP(=O)([O-])OP(=O)(O)O (stereo partly shown), the inhibition was 30.3% (dcp2 with Dcp1; 200 µM, 0.5 h).
CN[C@@H]1[C@H](O)[C@H](NC)[C@H]2O[C@]3(O)[C@H](O[C@@H]2[C@H]1O)O[C@H](C)C[C@H]3NC(=O)Cc1ccc(Cl)cn1 gave an inhibition of -2% (NPY1R (Homo sapiens, UniProt P25929); ligand displacement, radioligand; 10 µM).
With N=C(N)NCCC[C@@H]1NC(=O)[C@H](CCCCNC(=O)CCC(NC(=S)Nc2ccc(CC3CN(CC(=O)O)CCN(CC(=O)O)CCN(CC(=O)O)CCN3CC(=O)O)cc2)C(=O)NCCCC[C@@H]2NC(=O)[C@@H](Cc3ccc(O)cc3)NC(=O)[C@H](CC(=O)O)NC(=O)CNC(=O)[C@H](CCCNC(=N)N)NC2=O)NC(=O)[C@@H](Cc2ccc(O)cc2)NC(=O)[C@H](CC(=O)O)NC(=O)CNC1=O (stereo partly shown) [scandium-44 labelled] the tissue uptake was 0.63 ± 0.17 %ID/g (PET imaging; female athymic nude mouse, kidney; intravenous, 2 h, U-87 MG xenograft, together with: cRGD 50 mg/kg blocking).
The inhibition of O=C(CN1CN(c2ccccc2)C2(CCN(C(=O)c3cnc4[nH]ncc4c3)CC2)C1=O)NCC(F)(F)F is reported as less than 50% (PIKFYVE (Homo sapiens, UniProt Q9Y2I7); inhibitor; concentration not given).
For O=C1NCN(c2ccccc2)C12CCN(Cc1ccccc1)CC2, the inhibition was 6.5% (PDE6D (Homo sapiens, UniProt O43924); enzyme activity, inhibitor; 5 µM).
With C1COCCN1 the inhibition was 41.1% (ache; enzyme activity, inhibitor, Ellman; 20 µM).
With O=C(O)c1ccccc1/C=N/Nc1nc(-c2ccccc2Cl)cs1 the inhibition was -7.6% (FYN isoform b; enzyme activity; 1 µM).
With O=C(NC1CCN(c2ncnc3[nH]cnc23)CC1)c1cccc(NS(=O)(=O)c2ccc(C(F)(F)F)cc2)c1 the inhibition was -7.52% (Genome polyprotein, NS5 methyltransferase domain (Zika virus, UniProt Q32ZE1); NS5 enzyme activity, inhibitor; 50 µM).
With CC(C)[C@H]1NC(=O)C[C@H]2/C=C/CCSSC[C@@H](NC1=O)C(=O)N[C@H](Cc1cccc3ccccc13)C(=O)NCC(=O)O2 the inhibition was 1.6% (ROS1 (Homo sapiens, UniProt P08922); enzyme activity, inhibitor; 10 µM).
COc1ccc2[nH]cc(CCN)c2c1 gave an inhibition of 41.4% (ache; enzyme activity, inhibitor, Ellman; 20 µM).
The inhibition of C[C@H](NCc1ccc(-c2ccc(C(F)(F)F)cc2)cc1)C(N)=O is reported as 17% (TGFBR1 (Homo sapiens, UniProt P36897); cell-free assay, competition with immobilised ligand; 1 µM).
With COc1ccccc1-c1n[nH]c2nc(NC3CCN(C(=O)Cc4ccc(F)cc4F)CC3)ncc12 the relative abundance was 0.7 (bead binding, competition bead pull-down, item: LINJ.09.0820; Leishmania donovani axenic amastigote extract; 10 µM; baseline: vehicle).
For c1ccc2[nH]ccc2c1, the inhibition was 38.9% (ache; enzyme activity, inhibitor, Ellman; 20 µM).
The prothrombin time of O=C1NC2(CC2)COc2ncc(F)cc2[C@H]2COCCN2c2ccn3ncc1c3n2 is reported as 8.2 ± 0.3 s (Sprague-Dawley rat, female, plasma; oral, 5 mg/kg/day, end of treatment, 4-week repeated-dose toxicity).
O=C(N1CCCCC1)n1ccnn1 has an inhibition of less than 50% (Acylamino-acid-releasing enzyme (Apeh, Mus musculus, UniProt Q8R146); serine hydrolase activity, inhibitor, competitive gel-based ABPP; mouse T-cell proteome; 1 µM, 30 min, 37 °C).
The inhibition of CCc1nc2ccc(C(=O)NCCCN(C)C)cn2c1N(C)Cc1cccs1 is reported as 62.8% (ache; enzyme activity, inhibitor, Ellman; 5 µM).
For CN(C)[C@H]1C[C@@]23CC[C@@]4(O2)C(=CC[C@]2(C)[C@@H](c5ccc6ccncc6c5)CC[C@H]24)C=C3[C@@H](O)[C@@H]1O, the inhibition was 1.4% (MARK4 (Homo sapiens, UniProt Q96L34); ATP probe labelling, inhibitor, KiNativ profiling; 0.1 µM).
CS(C)(=O)=Nc1ccc(-c2ccc(-c3nc4cc(O[C@@H]5CO[C@H]6[C@@H]5OC[C@H]6O)[nH]c4cc3F)cc2)cc1 gave an inhibition of 8% (FGR (Homo sapiens, UniProt P09769); enzyme activity, inhibitor; 10 µM).
The protein binding of CC(=O)NCCCC[C@@H]1NC(=O)[C@H](Cc2c[nH]c3c(C)cccc23)NC(=O)[C@H]([C@@H](C)O)NC(=O)[C@H](CC(N)=O)NC(=O)[C@@H](NC(C)=O)C(C)(C)SSC(C)(C)[C@@H](C(=O)N[C@@H](Cc2ccc(OCCN)cc2)C(=O)N[C@@H](Cc2ccc3ccccc3c2)C(=O)NC2(C(=O)N[C@@H](CCC(=O)O)C(=O)N[C@@H](CC(N)=O)C(=O)N[C@@H](Cc3cccnc3)C(=O)N(C)CC(N)=O)CCOCC2)NC1=O is reported as 35.9 ± 2.1 % bound (Albumin (ALB, Homo sapiens, UniProt P02768); equilibrium dialysis; purified human albumin; 1 µM).
For C[C@@H](O)[C@@H]1NC(=O)[C@@H](NC(=O)CCOCCOCCOCCOCCNC(=O)c2ccc(NN)nc2)CSSC[C@@H](C(=O)O)NC(=O)[C@H](Cc2c[nH]cn2)NC(=O)[C@H](CO)NC(=O)[C@H](Cc2ccccc2)NC(=O)[C@@H]2CCCN2C(=O)[C@H](CO)NC(=O)[C@@H]2CCCN2C1=O [technetium-99m labelled], the tissue uptake was 0.68 ± 0.34 %ID/g (mouse HCT-116 xenograft, stomach; intravenous, 37 MBq, postmortem after imaging).
With Cc1ccc(OC2CN(C)C2)cc1C(=O)N[C@H](C)c1cc(-c2cnn(C)c2)nc2ccccc12 the viability was 100% and 93.2% (Vero E6; 7.812 µM).
With BP(=O)(OC[C@H]1O[C@@H](n2c[n+](C)c3c(O)nc(N)nc32)[C@H](O)[C@@H]1O)OP(=O)([O-])OP(=O)([O-])OP(B)(=O)OC[C@H]1O[C@@H](n2c[n+](C)c3c(O)nc(N)nc32)[C@H](O)[C@@H]1O (single isomer, unassigned) the inhibition was 40.4% (dcp2 with Dcp1; 200 µM, 0.5 h).
For CC(C)(C)C(=O)OCOP(=O)(OCOC(=O)C(C)(C)C)C1CCCN(O)C1=O (stereo not shown), the GI50 was 493 nM (SW-620).
For CN(/N=C/c1ccccc1C(=O)O)c1nc(-c2ccccc2Cl)cs1, the inhibition was -15.2% (MAP4K3 (Homo sapiens, UniProt Q8IVH8); enzyme activity, inhibitor; 1 µM).
For C=CC(=O)Nc1cc(-c2nn(C3CCC(N4CCN(C(C)=O)CC4)CC3)c3ncnc(N)c23)ccc1Oc1ccccc1 (stereo not shown), the inhibition was -4.3% (NEK3 (Homo sapiens, UniProt P51956); inhibitor, KiNativ profiling; biochemical; 2 µM).
CCc1nnc(-c2c(OC)cc(-c3cnc4cc(-c5cnn(C)c5)ccn34)cc2OC)o1 gave an inhibition of 7% (SLC6A3 (Homo sapiens, UniProt Q01959); antagonist radioligand, radioligand binding; 10 µM, SafetyScreen44 dopamine transporter).
COc1ccc(F)cc1S(=O)(=O)Nc1cnc2c(c1)C(=O)NCCO2 has an inhibition of 3% (ADRA1D (Homo sapiens, UniProt P25100); ligand displacement, radioligand; 10 µM).
CCC1CC(c2ccc(C(=O)O)cc2C)=NN1c1ccc(C#N)c(Cl)c1 (stereo not shown) has an inhibition of 3% (CARM1 (Homo sapiens, UniProt Q86X55); enzyme activity, inhibitor; 10 µM).
CCOC(=O)[C@](CC)(CCCSCCOCCOCCNC(=O)c1ccc(-c2c3ccc(=N)c(S(=O)(=O)O)c-3oc3c(S(=O)(=O)O)c(N)ccc23)c(C(=O)O)c1)NC(=O)c1ccc(C2CC2)c(Cc2ccc(F)cc2)n1 has an inhibition of 21% (MMP9 (Homo sapiens, UniProt P14780); enzyme activity, inhibitor; 10 µM).
For CC(=O)NC[C@@H]1[C@@H](O)C[C@H]2[C@H](O)C[C@@H](CO)N12, the inhibition was 81.6% (human placental β-N-acetylglucosaminidase; 0.342 µM, run 1, together with: p-nitrophenyl GlcNAc).
With N[C@H](C(=O)N1CCCC1)C1CCN(c2nccc3c(-c4ncc(Cl)cc4Cl)cccc23)CC1 the inhibition was -29% (GABA transporter; binding, radioligand binding; 10 µM).
For CC[C@H](C)[C@H](NC(=O)[C@H](CO)NC(=O)[C@H](Cc1ccc(O)cc1)NC(=O)[C@H](Cc1ccc(O)cc1)NC(=O)[C@H](CC(N)=O)NC(=O)CNC(=O)[C@H](CO)NC(=O)[C@H](Cc1ccc(O)cc1)NC(=O)[C@H](CO)NC(=O)[C@H](CO)NC(=O)[C@H](CC(N)=O)NC(=O)COCCOCCNC(=O)CN1CCN(CC(=O)O)CCN(CC(=O)O)CCN(CC(=O)O)CC1)C(=O)N[C@@H](CC(C)C)C(N)=O [copper-64 labelled], “maximum pancreas uptake” read 17.9 %IA/cc (dynamic PET; tamoxifen-induced PDAC mouse model, pancreas; 7.5 min, CLDN4-expressing tumours).
The viability of Cc1ccc(OCCN(C)C)cc1C(=O)N[C@H](C)c1cc(-c2cccnc2N2CCCC2)nc2ccccc12 is reported as 96.8% and 109% (Vero E6; 3.906 µM).
The inhibition of CN[C@@H]1[C@H](O)[C@H](NC)[C@H]2O[C@]3(O)[C@H](O[C@@H]2[C@H]1O)O[C@H](C)C[C@H]3NC(=O)Cc1cc(Cl)ccn1 is reported as 0% (MTNR1A (Homo sapiens, UniProt P48039); ligand displacement, radioligand; 10 µM).

Repeated from above:
With Cc1ccc(OC2CN(C)C2)cc1C(=O)N[C@H](C)c1cc(-c2cnn(C)c2)nc2ccccc12 the viability was 100% and 93.2% (Vero E6; 7.812 µM).
With BP(=O)(OC[C@H]1O[C@@H](n2c[n+](C)c3c(O)nc(N)nc32)[C@H](O)[C@@H]1O)OP(=O)([O-])OP(=O)([O-])OP(B)(=O)OC[C@H]1O[C@@H](n2c[n+](C)c3c(O)nc(N)nc32)[C@H](O)[C@@H]1O (single isomer, unassigned) the inhibition was 40.4% (dcp2 with Dcp1; 200 µM, 0.5 h).
For CC(C)(C)C(=O)OCOP(=O)(OCOC(=O)C(C)(C)C)C1CCCN(O)C1=O (stereo not shown), the GI50 was 493 nM (SW-620).
For CN(/N=C/c1ccccc1C(=O)O)c1nc(-c2ccccc2Cl)cs1, the inhibition was -15.2% (MAP4K3 (Homo sapiens, UniProt Q8IVH8); enzyme activity, inhibitor; 1 µM).
